Measured values of several laboratories.
A part holds a random share of what one study measured. Changes are numbered by the printed parent chain.
Sequence of UniProt Q14012 (whole entry, looked up): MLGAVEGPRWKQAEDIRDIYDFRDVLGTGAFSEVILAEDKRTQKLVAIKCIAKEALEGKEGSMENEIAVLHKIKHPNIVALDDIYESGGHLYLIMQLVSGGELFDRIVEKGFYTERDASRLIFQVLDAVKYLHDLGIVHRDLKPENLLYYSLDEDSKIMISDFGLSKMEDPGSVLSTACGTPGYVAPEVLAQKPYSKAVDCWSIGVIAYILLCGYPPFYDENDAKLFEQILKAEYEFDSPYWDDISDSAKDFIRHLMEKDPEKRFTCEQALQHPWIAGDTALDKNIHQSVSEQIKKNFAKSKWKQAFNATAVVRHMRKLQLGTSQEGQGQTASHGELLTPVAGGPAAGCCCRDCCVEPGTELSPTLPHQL

Block 1 — target: vanadate, free oxyanion; method: microfluidic competitive inhibition; medium: in vitro, cell-free expressed; concentration: not given; reading: lower = stronger binding
Setting: derived from inhibition constants, unchanged parent 676 nM
Parent: PafA, mature enzyme, eGFP fusion (Elizabethkingia meningoseptica, UniProt Q9KJX5); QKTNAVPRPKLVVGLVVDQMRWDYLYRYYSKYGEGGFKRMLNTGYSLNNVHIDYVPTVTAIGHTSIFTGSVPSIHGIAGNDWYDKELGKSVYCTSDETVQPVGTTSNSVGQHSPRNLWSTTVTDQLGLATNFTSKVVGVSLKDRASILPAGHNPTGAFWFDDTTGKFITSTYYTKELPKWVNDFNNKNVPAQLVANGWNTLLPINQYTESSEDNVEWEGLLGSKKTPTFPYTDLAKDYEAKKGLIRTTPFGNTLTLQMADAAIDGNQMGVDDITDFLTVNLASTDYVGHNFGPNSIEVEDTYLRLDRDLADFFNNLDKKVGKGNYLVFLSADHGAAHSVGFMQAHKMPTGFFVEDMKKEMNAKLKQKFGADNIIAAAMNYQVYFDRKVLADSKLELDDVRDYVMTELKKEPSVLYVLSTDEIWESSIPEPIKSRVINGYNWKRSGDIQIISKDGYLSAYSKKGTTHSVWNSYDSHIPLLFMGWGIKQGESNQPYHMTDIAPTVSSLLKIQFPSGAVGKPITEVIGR
`S295V` — result for “oxyanion analog dissociation constant”: 713 nM.
`S134V`: “oxyanion analog dissociation constant” 627 nM.
`G35V`: “oxyanion analog dissociation constant” 586 nM.
Under “oxyanion analog dissociation constant”, `E239G` is recorded as 621 nM.
`V50A` — result for “oxyanion analog dissociation constant”: 513 nM.
`V382G`: “oxyanion analog dissociation constant” 650 nM.
`S330V`: “oxyanion analog dissociation constant” 1.18 µM.
For `P56V`, “oxyanion analog dissociation constant” read 2.54 µM.

Block 2 — target: CCNA2, cyclin fold, Cln2 fusion (human); method: yeast growth competition, sequencing; medium: yeast; setting: strong parent motif; baseline: not given; reading: higher = stronger binding
Parent: viral docking peptide; TSVRRALFTGGSD; partner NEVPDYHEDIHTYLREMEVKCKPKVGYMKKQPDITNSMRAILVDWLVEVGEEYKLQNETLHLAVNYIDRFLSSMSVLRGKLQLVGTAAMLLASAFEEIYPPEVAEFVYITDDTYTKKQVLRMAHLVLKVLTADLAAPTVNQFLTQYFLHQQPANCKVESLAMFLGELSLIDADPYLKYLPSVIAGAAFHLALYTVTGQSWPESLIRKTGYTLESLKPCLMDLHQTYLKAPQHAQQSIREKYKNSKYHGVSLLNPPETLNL
Under “normalised enrichment score”, `TSVRRALSTGGSD [F8S]` is recorded as 0.362.
For `ASVRRALFTGGSD [T1A]`, “normalised enrichment score” read 6.78.
Under “normalised enrichment score”, `TSVQRALFTGGSD [R4Q]` is recorded as 2.61.
Under “normalised enrichment score”, `TSVRIALFTGGSD [R5I]` is recorded as 2.38.
`TSVRRSLFTGGSD [A6S]` — result for “normalised enrichment score”: 5.81.
For `TSVRRALFTGHSD [G11H]`, “normalised enrichment score” read 6.32.
`TSVRRALWTGGSD [F8W]` — result for “normalised enrichment score”: 4.28.
Under “normalised enrichment score”, `TSVRRALFTGDSD [G11D]` is recorded as 5.92.

Mixed results
For `Cn1cncc1[C@](O)(COc1ccc(C#N)cc1-c1ccc(OC(F)(F)F)cc1)c1ccc(C#N)cc1`, the remaining binding was 100% (Serine/threonine-protein kinase N1 (PKN1, Homo sapiens, UniProt Q16512); cell-free assay, competition with immobilised ligand; 1 µM).
`CNC(=O)c1ccc(-c2cnn3ccc(C(=O)N(C)c4ccc(Cl)c(C(=O)OC)c4)cc23)cc1` has an IC50 of over 30 µM (Calcium/calmodulin-dependent protein kinase type 1 (CAMK1, Homo sapiens, UniProt Q14012); enzyme activity, inhibitor).

Repeated from above (block 2):
`TSVRRSLFTGGSD [A6S]` — result for “normalised enrichment score”: 5.81.
For `TSVRRALFTGHSD [G11H]`, “normalised enrichment score” read 6.32.
`TSVRRALWTGGSD [F8W]` — result for “normalised enrichment score”: 4.28.
